Results gathered from unrelated publications.
Every numbered part comes from another study and shows a few of its results, in no order. Positions count from the first letter of the parent shown.

Block 1
Target: Histone acetyltransferase KAT6A, winged helix 1, GST fusion (KAT6A, Homo sapiens, UniProt Q92794, residues 1-85)
Method: protein binding microarray
Molecule type: double-stranded DNA, one strand shown
Medium: in vitro
Tested at: not given
Setting: 8-mer, flanks averaged, mean of 2 arrays, mostly near background
Reference: not given
Reading: higher = stronger binding
Quantity: E-score
Target sequence (chain): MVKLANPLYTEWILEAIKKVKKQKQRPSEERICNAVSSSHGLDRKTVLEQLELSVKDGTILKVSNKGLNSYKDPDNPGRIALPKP
TTGCGAAA: 0.0224
AATGAAGT: -0.23
GGTATGTA: -0.113
CCTCAGCC: -0.146
GCGTAGTA: 0.169
AATGGCTG: -0.222
CTCAGTGC: 0.00814
AGACACGC: 0.203
GGATGGAA: -0.144
GGCAGCTA: 0.0377
GCTAGGCC: 0.14
GCGAAGGA: -0.00394
ACGTGCCC: -0.0116
ATGATCAC: -0.104
TGAGAACA: -0.172
ACTAAATC: -0.0232
CATTTGGG: -0.0364
GTATGAGA: -0.0889
GATTAGCA: -0.0055
ATTCTTTA: -0.14
ATTCCCCA: -0.234
ACGCGAGA: 0.0818
CGAAATCA: -0.0755
GGCTAAAC: 0.0888
ACAGAATG: -0.104

Block 2
Target: CCND1, cyclin fold, Cln2 fusion (human)
Method: yeast growth competition, sequencing
Medium: yeast
Setting: weak parent motif
Reference: not given
Reading: higher = stronger binding
Quantity: normalised enrichment score
Parent: MASTL docking peptide (human); PMIAKNLMCELDE; partner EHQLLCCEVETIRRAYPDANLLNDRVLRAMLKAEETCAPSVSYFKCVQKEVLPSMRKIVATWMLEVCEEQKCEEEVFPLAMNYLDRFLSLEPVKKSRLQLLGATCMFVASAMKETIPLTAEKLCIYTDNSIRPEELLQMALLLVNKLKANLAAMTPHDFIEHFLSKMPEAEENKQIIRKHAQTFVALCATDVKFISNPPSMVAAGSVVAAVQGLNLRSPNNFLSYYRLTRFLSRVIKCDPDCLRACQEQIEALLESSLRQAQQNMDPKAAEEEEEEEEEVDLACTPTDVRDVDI
E10Y: 0.147
M2G: -0.023
L11T: 0.16
K5M: 0.445
L7D: -0.174
D12G: 0.171
M8E: 0.0999
D12A: 0.185
N6H: 0.22
E10S: -0.125
K5W: 0.914
C9N: 0.0156
C9G: 0.281
M2I: 0.358
D12W: -0.115
M2A: -0.00386
L7H: -0.781
N6A: -0.0667
N6C: 0.0628

Block 3
Target: Ras GTPase-activating protein-binding protein 1, RRM domain (G3BP1, Homo sapiens, UniProt Q13283)
Chain of UniProt Q13283 (whole entry, looked up): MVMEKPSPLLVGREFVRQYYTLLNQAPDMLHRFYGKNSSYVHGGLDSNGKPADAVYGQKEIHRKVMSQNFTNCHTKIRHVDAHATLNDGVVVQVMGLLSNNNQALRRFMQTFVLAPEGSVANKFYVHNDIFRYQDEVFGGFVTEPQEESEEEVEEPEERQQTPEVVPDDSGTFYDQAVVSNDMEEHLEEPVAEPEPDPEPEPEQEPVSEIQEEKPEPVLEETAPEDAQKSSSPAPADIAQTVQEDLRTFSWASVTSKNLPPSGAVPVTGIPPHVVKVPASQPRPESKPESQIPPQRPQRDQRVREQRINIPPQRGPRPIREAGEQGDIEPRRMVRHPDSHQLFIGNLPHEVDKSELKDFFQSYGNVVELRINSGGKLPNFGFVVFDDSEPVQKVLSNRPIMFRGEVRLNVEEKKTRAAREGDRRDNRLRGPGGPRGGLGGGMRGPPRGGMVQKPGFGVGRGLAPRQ
Method: RNA Bind-n-Seq
Molecule type: RNA
Medium: in vitro
Tested at: 1 µM
Setting: whole 134-nt RNA, ends assumed
Added: 150 mM KCl
Reference: input library
Reading: higher = stronger binding
Quantity: log2 enrichment
Constant ends, left off below: GGGAGUUCUACAGUCCGACGAUC … UGGAAUUCUCGGGUGUCAAGG
CUCAAGUCCUGUGCUACACAUCGUAUGUACCGAAUCGGGAAGGGGAAGGAAGGGAAAGUAUUAUGUUACGCCGUUCGGAUCUGCACUUCC: -0.153
CUGUGCUACACAUCGUAUGUACCGAAUCGGGGAAAGGGGUUUUUUUGGGGUUUUUUUGGGGAAAGUAUUAUGUUACGCCGUUCGGAUCUG: 0.614
AGUCCUGUGCUACACAUCGUAUGUACCGAAUCGGGGAAAAAGGGGAGGGGAAAGGGGAAAGUAUUAUGUUACGCCGUUCGGAUCUGCACU: 0.883
CCAUAGACCCCUUUCUUCUCCCCUUCCCCACGGUAGGAACAUAGCGUGUUUAUAUUUUAUGGCCAAACUAUUUUGAAUUUUGUUGUCCGG: -0.212
AGUCCUGUGCUACACAUCGUAUGUACCGAAUCGGAAAAAGGAAAAAGGUUUUUUUGGAAAGUAUUAUGUUACGCCGUUCGGAUCUGCACU: -0.183
AAAGCAAGAGAUGGCUAGUGCUUCAUCCAGCCAAAGAGGUAUGCUUGUUGCUUAAUUAAACCUUAAAGGUAACUUUGAGUUACUCCAGUA: -0.149
GCAGGAAGUAAAAACAAAUGGAAAUGCUUCGGAUAGUGGCAGGCGUGGGGGUUGCUAAGGAAAGGGUGGGAUGGGAGUGGGUAAAGAGUU: 1.3
UAACUUUAGAGGAGGAUCUGAUGGAUAUGGCAGUGGACGUGGAUUUGGGGAUGGCUCUAAUGGGUAUGGAGGAGGACCUGGAGGUGGCAA: -0.808
UCCUCAAGUCCUGUGCUACACAUCGUAUGUACCGAAUCGGCGGCGGCGGGGAAAGUAUUAUGUUACGCCGUUCGGAUCUGCACUUCCAGC: -0.215

Other studies, line by line
PhoQ, residues 284 288 289 292 302 303 MLMVEA  fold induction (PhoP, residues 12 14 15 18 19 QWHVF (Escherichia coli, UniProt P23836); Sort-seq, item: YFP reporter; E. coli; PhoQ-PhoP variant library, added: 10 µM Mg2+; reference: high Mg2+ state, higher = stronger signaling): 8.75

Repeated from above (block 3):
CUCAAGUCCUGUGCUACACAUCGUAUGUACCGAAUCGGGAAGGGGAAGGAAGGGAAAGUAUUAUGUUACGCCGUUCGGAUCUGCACUUCC: -0.153
AGUCCUGUGCUACACAUCGUAUGUACCGAAUCGGGGAAAAAGGGGAGGGGAAAGGGGAAAGUAUUAUGUUACGCCGUUCGGAUCUGCACU: 0.883
UCCUCAAGUCCUGUGCUACACAUCGUAUGUACCGAAUCGGCGGCGGCGGGGAAAGUAUUAUGUUACGCCGUUCGGAUCUGCACUUCCAGC: -0.215
